Measurements of several laboratories.
Every numbered part comes from another study and shows a few of its results, in no order. Positions count from the first letter of the parent shown.

Series 1
Target: Histone acetyltransferase KAT6A, winged helix 1, GST fusion (KAT6A, Homo sapiens, UniProt Q92794, residues 1-85)
Method: protein binding microarray
Form: double-stranded DNA, one strand shown
Medium: in vitro
Tested at: not given
Notes: 8-mer, flanks averaged, mean of 2 arrays, mostly near background
Reference: not given
Direction: higher = stronger binding
Residues (chain): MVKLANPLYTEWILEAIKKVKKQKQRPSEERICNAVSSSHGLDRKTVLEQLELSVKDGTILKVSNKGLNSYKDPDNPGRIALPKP
| Oligonucleotide | E-score |
| --- | --- |
| AAGTAGGG | -0.209 |
| AGGAGATG | -0.145 |
| AGAAGACG | -0.106 |
| CCCGCTAG | 0.31 |
| AAGATCAA | -0.106 |
| CAAATAGA | -0.214 |
| CCCGCGGG | 0.446 |
| ACGGTTTC | 0.149 |
| TAGATCGA | -0.183 |
| GGTCATCA | 0.00993 |
| GGTTCAAA | 0.0523 |
| CTGGTTCA | -0.29 |
| ATAGAGCC | -0.00407 |

Series 2
Target: Fragile X messenger ribonucleoprotein 1, C-terminal low-complexity region (Fmr1, Mus musculus, UniProt P35922)
Method: RNA Bind-n-Seq
Form: RNA
Medium: in vitro
Tested at: 200 nM
Notes: whole 134-nt RNA, ends assumed
Added: 150 mM LiCl
Reference: input library
Direction: higher = stronger binding
All molecules: 7-deaza-guanosine replaces G
Shared flanks, not repeated: GGGAGUUCUACAGUCCGACGAUC … UGGAAUUCUCGGGUGUCAAGG
| Oligonucleotide | log2 enrichment |
| --- | --- |
| CAAGUCCUGUGCUACACAUCGUAUGUACCGAAUCGGUUUGGUUUGGUUUUUUUGGAAAGUAUUAUGUUACGCCGUUCGGAUCUGCACUUC | -1.71 |
| UAACUUUAGAGGAGGAUCUGAUGGAUAUGGCAGUGGACGUCGAUUUGGGGAUGGCUAUAAUGGGUAUGGAGGAGGACCUGGAGGUGGCAA | 0.437 |
| UGGGAGGUGGAUUUUGUUUAUUUUUUUAGCUCAUUUCCAGGGGUGGGAAUUUUUUUUUAAUAGGUGUCAUGAAUAAAGUUGUUUUUGAAA | 0.25 |
| AAGUCCUGUGCUACACAUCGUAUGUACCGAAUCGGGGUUUUUGGGGAGGGGAGGGGAAAGUAUUAUGUUACGCCGUUCGGAUCUGCACUU | 0.38 |
| UCCUGUGCUACACAUCGUAUGUACCGAAUCGGGAAAAAGGGAAAAAGGGUUUUUUUGGGAAAGUAUUAUGUUACGCCGUUCGGAUCUGCA | -1.32 |
| CUCAAGUCCUGUGCUACACAUCGUAUGUACCGAAUCGGUUUUUGGUGGUUUGGAAAGUAUUAUGUUACGCCGUUCGGAUCUGCACUUCCA | -0.73 |

Series 3
Target: RNA binding protein fox-1 homolog 2, RRM domain, GST-SBP tag (RBFOX2, Homo sapiens, UniProt O43251-10, residues 100-194)
Method: RNA Bind-n-Seq
Form: RNA
Medium: in vitro
Tested at: 365 nM
Notes: natural RNA segment, single round, ends assumed
Reference: no-protein control
Direction: higher = stronger binding
Shared flanks, not repeated: GGGAGUUCUACAGUCCGACGAUC … UGGAAUUCUCGGGUGCCAA
Target sequence (chain): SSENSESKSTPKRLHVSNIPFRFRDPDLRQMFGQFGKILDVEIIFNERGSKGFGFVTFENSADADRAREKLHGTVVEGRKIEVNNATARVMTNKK
| Oligonucleotide | RBNS enrichment (R) |
| --- | --- |
| GGAUUCUGUGCCAUCUGAACAUGCUCUCCUGUUGGUGUGUAUGUCACUAGGGCAGUGGGGAGACGUCUUAACUCUGCUGCUUCCCAAGGAUGGCUGUUUAUAAUUUGGGG | 0.449 |
| GUGUCCUCAGCUAACAAAGGCAGGACUCCAGCUGGACUUCUGCAGCUUCCUUCCGAGUCUCCCUAGCCACCCGCACUACUGGACUGUGGAAGGAAGCGUCUACAGAGAAC | 0.227 |
| GGCAUGACUCUGCCAUGGUGUCACAGGCAUCUUGAUCAUGUCUUGACCAUAGAAUUGCUCUCUAGGAGCUGGGCAUGGUGACCUACGUCUGUAUUCUCAGCACUCAGGAG | 0.286 |
| UUGAAAUUAACUUGGUAGAUGGCUUUAGCUUAGAAAAGCAGCUUCUUAGAACCAAGGGCCUCAUUAUGGUCACUCACAGCUCAGUUAUGGUCUUGCCCCAGCUGGCCCUG | 0.435 |
| UCAUGAGUUAGUUAUGCAGCAAGUCCCUAUAUACCUAGAAAUGCUCUUGUCAGAAGUGUCACUGCCAAGGGACCAGAGAGAGGCUGCUAAGAGCCUGGACAUGCCUACCC | 0.283 |
| UUGGGGCGUGGUGAGUUGGAAUGAUACGUCCAUUUCUCUAUGAAAUAUUUGCUACUAGACUGUUCAUUUCUCUCUGACAUGUUUGUUGAAUGAAUAAAUAAUUUGAAACU | 4.26 |
| CUCUUUUUCUCAUUGUCAUUUGUUGGCUUUAUUAGGGCUGUCUUACAGGAUCAUGUUGGCAUUUACUAUCAUGUCUUUAUCAUAAACCAUGUUUGUUUGAGGUAGAAGAA | 0.52 |
| AGGGCAGGAGAGAGUGGACAGCAAGACUGAGAAGAUGUGAACAAAUGAGAUUUAAUCCACCAAGGAGAAUUGGUUGGGUUUGUUUAGCCUCUAAAGUUAUAGAAAGAAUG | 2.76 |
| UGUUGAAAAAUCUGUGAAGAACAUAGUAAGUUAAGGUUUUCCAACUUGGAAAAAUGUACAUGAUGUGAAACUGGGGUGCUAUGUUAAAAAUAAAUGUAUGAUAACUCAUG | 0.331 |
| CUUCUAGCCAAUCACGCUCUGGACCAGCAUGUUGGAAUCCAGUGUGGGGCAAAUGCAGUAAAGAUUUUUCCGUUUCUGUAUGAGUUGUUCCUUCAGUCCCUUCCUCCCGC | 12.1 |
| UUUCCUAUUGCCAAAAGAAAGAAAGGGGGCCAAACAGCUCUGAAAUUUCCAAAAAAUGGCUAGAGGGAGAGUCCAGUUUCUGAGCUCUGUACCCAAAUUAAAAUCCUGAU | 0.316 |
| GCAUCGGGAAAGAAGAAACUCCGAAGAAAAGAAUUUUAGUGUUAAUGACUCUUUCUGAAGGAAGAGAAGACAUUUGCCUUUUGUUAAAAGAUGGUAAACCAGAUCUGUCU | 0.616 |

Series 4
Target: Interferon regulatory factor 7, full length, phosphomimetic (IRF7, Homo sapiens, UniProt Q92985, residues 1-503, S471D/S472D/S475D/S476D/S477D/S483D/S484D/S487D)
Sequence of UniProt Q92985 (whole entry, unmodified, looked up): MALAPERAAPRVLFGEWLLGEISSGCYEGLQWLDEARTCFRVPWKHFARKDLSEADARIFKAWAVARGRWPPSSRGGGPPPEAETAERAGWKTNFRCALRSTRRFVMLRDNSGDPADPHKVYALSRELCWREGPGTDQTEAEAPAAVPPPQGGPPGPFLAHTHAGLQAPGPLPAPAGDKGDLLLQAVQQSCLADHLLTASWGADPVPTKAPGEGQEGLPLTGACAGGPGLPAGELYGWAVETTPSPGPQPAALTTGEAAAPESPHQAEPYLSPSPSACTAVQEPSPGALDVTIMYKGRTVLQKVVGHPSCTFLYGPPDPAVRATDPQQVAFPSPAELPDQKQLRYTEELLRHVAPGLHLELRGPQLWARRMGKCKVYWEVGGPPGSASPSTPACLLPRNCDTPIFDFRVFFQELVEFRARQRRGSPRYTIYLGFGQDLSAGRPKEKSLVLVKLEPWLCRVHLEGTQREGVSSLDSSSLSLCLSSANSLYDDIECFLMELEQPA
Method: protein-binding microarray
Form: double-stranded DNA, one strand shown
Medium: in vitro
Tested at: 2200 nM top
Notes: 60-bp whole probe
Added: salmon DNA 0.4 mg/ml
Reference: random background probes
Direction: higher = stronger binding
Shared flanks, not repeated: GCCTAGCAC … GTCTTGATTCGCTTGACGCTGCTG
| Oligonucleotide | fitted relative affinity [z-score] |
| --- | --- |
| TCATAACTCATTCTCTGACTGTGCTAG | 1.12 |
| TCAACTCTGAACCTTCAGACTGTGCTA | 0.153 |
| TTAGGAATCGACACTGGGTTAGTGCTA | -0.47 |
| GACTTTCTTTCAAATGAAGGAGTGCTA | 0.524 |
| TTAGATATCGGGTTTCGATTCGTGCTA | 6.71 |
| TTAGGACTGCTTATCCTTAAGTGCTAG | 0.323 |
| TTTTGAAGTTTGGCGTTGACGTGCTAG | 0.179 |
| GACGAACTGGGGACGGGAGACGTGCTA | -0.326 |
| GACGGTATCGCTATCGGGACGTGCTAG | 0.349 |
| GCCGATTCCAGTTTCGAGACGTGCTAG | 4.53 |
| TCACCCTTTGCTTTCCTACTGTGCTAG | 2.87 |
| TGGTTTTACTTTCTATCTCTGTGCTAG | 5.71 |

Series 5
Target: CCNB1, cyclin fold, Cln2 fusion (human)
Method: yeast growth competition, sequencing
Medium: yeast
Notes: weak parent motif
Reference: not given
Direction: higher = stronger binding
Parent: RBL1 docking peptide (human); GSAKRRLFGEDPP
| Change | normalised enrichment score |
| --- | --- |
| S2E | 0.773 |
| P13M | 0.21 |
| S2L | 0.105 |
| P12M | 0.0928 |
| R6E | 0.757 |
| D11S | 1.29 |
| R5T | -0.115 |
| L7C | 1.09 |
| E10A | 0.618 |
| R6F | 0.09 |
| A3T | 0.714 |
| R6V | 0.643 |
| A3P | 0.482 |
| G9Y | 1.42 |
| R5E | -0.0218 |
